Measured values collected from several papers.
Each numbered part is a random draw from the data of one study; scales do not carry over between parts.

Study 1
Target: Phosphate system positive regulatory protein PHO4, full length, GST-tagged (PHO4, Saccharomyces cerevisiae, UniProt P07270, residues 1-312)
Method: competition protein-binding microarray
Molecule type: double-stranded DNA, one strand shown
Medium: in vitro
Concentration: 2 µM
Notes: whole 60-bp probe, lowest competitor level
Added: Cbf1 competitor, 0.05 µM
Direction: higher = stronger binding
Measurement: fluorescence intensity
Shared flanks, not repeated: … GTCTTGATTCGCTTGACGCTGCTG
Residues (chain): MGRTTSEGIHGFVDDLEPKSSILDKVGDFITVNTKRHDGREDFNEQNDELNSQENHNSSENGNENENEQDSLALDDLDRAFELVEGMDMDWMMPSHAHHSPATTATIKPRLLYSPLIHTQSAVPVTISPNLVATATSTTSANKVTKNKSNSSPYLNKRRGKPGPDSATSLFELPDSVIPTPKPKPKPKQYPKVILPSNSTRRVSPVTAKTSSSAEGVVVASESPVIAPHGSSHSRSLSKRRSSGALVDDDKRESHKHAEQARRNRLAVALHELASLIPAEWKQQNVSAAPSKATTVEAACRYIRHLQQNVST
GTCTTGTCTCATTGACGAGTGGGTGTCCCCACTTCA: 4200 a.u.
CTTTCCCGATCTTGCCGAGTGGGTGTAGCACATTTG: 4800 a.u.
CATACCCAACCTTGCCTTGTGGGTGAAGATATTTGT: 6390 a.u.
CTGCTTCACAGTTTGCACGTAACTTGCTGAGGGGCC: 5040 a.u.
CTAACGAAGGTTTGCTCTGTGGGTGACAAGCCAAGT: 3330 a.u.
AAATTACTAAGTTGATCCGTGGGTGACGCCGTATGA: 5380 a.u.
CTAACGAAGGTTTGAACAGTGGGTGACAAGCCAAGT: 4080 a.u.
TTCCTGTAACACTGGCACGCTTGAAGTGAGCATAAA: 7490 a.u.
TACGACGAGACTTGGCATGATCAAAGTGCAAAAGAA: 4290 a.u.
CCGTTTCCTTTCCATCACGTGCGGAGGTAGCACCCG: 17400 a.u.
CATACCCAACCTTGCTAGGTGGGTGAAGATATTTGT: 3650 a.u.
CTAACGAAGGTTTGGACGGTGGGTGACAAGCCAAGT: 3410 a.u.
CAGTTGCGACAGCAGCTCGTGTGAAGGTCGCTGGCG: 8160 a.u.
AAATTACTAAGTTGTCACCGAACTTACCCCGTATGA: 2820 a.u.
TAACGAAAATGTTAGCACGTCGCGTTTATGGCCCCA: 6690 a.u.
CATACCCAACCTTGGCTAGTGGGTGAAGATATTTGT: 3740 a.u.
CTGTCCATAACTTCTCTCGTGACTCGGCCAAGGATG: 6160 a.u.

Study 2
Target: RNA binding protein fox-1 homolog 2, RRM domain, GST-SBP tag (RBFOX2, Homo sapiens, UniProt O43251-10, residues 100-194)
Method: RNA Bind-n-Seq
Molecule type: RNA
Medium: in vitro
Concentration: 365 nM
Notes: natural RNA segment, single round, ends assumed
Baseline: no-protein control
Direction: higher = stronger binding
Measurement: RBNS enrichment (R)
Shared flanks, not repeated: GGGAGUUCUACAGUCCGACGAUC … UGGAAUUCUCGGGUGCCAA
Target sequence (chain): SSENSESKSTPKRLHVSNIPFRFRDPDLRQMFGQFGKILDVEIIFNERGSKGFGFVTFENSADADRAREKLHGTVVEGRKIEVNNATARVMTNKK
ACAUUUUGUGACGAAUGGUGUGGCCUGAGGCCACUUGACAGACUGCUGCCUGGGCUUGCUCAGGUCCCCACUAAUAUUUUAAUGUGCCAAUGCCUGUGGAGAGUCUACAG: 0.464
CAGUAGCUUAUUUGAACUUGAGACCAUUGUAAGCAUGACCCAACCUACCACCCUGUUUUUACAUAUCCAAUUCCAGUAACUCUCAAAUUCAAUAUUUUAUUCAAACUCUG: 3.52
GCUUUAUUUAUCUGUAUGAACACAGAUUUGACAUUACAGCUAAGGAAAUAAUUUGAGUUGAUUCAGAAAUCCUGGCAUGUGACAAUUUUGUUAAAUUACCAAGUUUGGUU: 1.5
AUGUCAGCAUUUGGUGUUACUCCUGUCCAAAUUCUGUUUGCAGACUUGUUUCAUGAUGAUGCUCUGGAAUGCUUGGGGACUUUGGGUGGAGGAGGAUGUUACUUCAUUUU: 4.57
CAACACAAUCAGCGGGUACUACCUGUGGCCCCCAACUCCUGUCACACUGGCUAUUGGUGGUGACUACUUUCUCAAGCCCUGGCUCCCCCAAGACAGUCUUUCCUAACUGC: 0.335
AGUUCCUUUGAGGAGGACCCCCUGGGAGCAGUCAAGCUGGAAGAUAGCUACCUGCAAGACACUACUGUCCCUCUACUUUUGCCAGGAAAGCCACUCUACUAUGAAUGUUA: 0.806
CUACUUCCUGUAAACAAGUACAGGAAAAUGAAACUAGACGGGUGGGGGACACUAGAAUGAAAACCAGUGUUAGGGUAAAGACAAAACAGACUAUGUACAUAAUCUGUAUA: 0.807
GAACUCUUGCCCUCCCUCUCAUUCCCAUCCUUCCUGGUACUGCAGUCAACCAAAGAUGGCAUGACUUACCUGCGCAGAUUUGGAAGCAUUGAACUUAGAGUGCUGGCUCU: 0.773

Study 3
Target: Histone acetyltransferase KAT6A, winged helix 2, GST fusion (KAT6A, Homo sapiens, UniProt Q92794, residues 85-181)
Method: protein binding microarray
Molecule type: double-stranded DNA, one strand shown
Medium: in vitro
Concentration: not given
Notes: 8-mer, flanks averaged, mean of 2 arrays, mostly near background
Baseline: not given
Direction: higher = stronger binding
Measurement: E-score
Residues (chain): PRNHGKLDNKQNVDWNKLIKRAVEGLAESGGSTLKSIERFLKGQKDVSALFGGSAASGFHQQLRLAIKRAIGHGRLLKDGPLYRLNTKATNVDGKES
ATTGGAAC: 0.0205
CTTATGAC: 0.00319
AAGCTATA: 0.149
GGTAAACA: -0.0264
GCATAACA: -0.0658
ACTCAAAG: -0.116
CTCCGGTC: 0.137
TAGTGCAA: 0.163
CATTTTGA: 0.0354
AAGATATA: -0.0466
AAGTGGAT: -0.0417
CTGTTCTC: 0.03
AGCCTTTA: -0.164
TAACAGCA: 0.136
TAGTAGGA: -0.0886
GTTCTCTA: 0.0169
CTGCTCCC: 0.0899
CTGCTAAG: 0.0569
CCTTTTAG: -0.0756
AGAAAGCT: 0.0437
GCATGGTA: 0.0334

Study 4
Substance: PhoQ, residues 284 288 289 292 302 303 QWGLFV
Method: Sort-seq
Item: YFP reporter
Medium: E. coli
Notes: PhoQ-PhoP variant library
Added: 10 µM Mg2+
Baseline: high Mg2+ state
Direction: higher = stronger signaling
Measurement: fold induction
PhoP, residues 12 14 15 18 19 TQALL (Escherichia coli, UniProt P23836): 6.76
PhoP, residues 12 14 15 18 19 NYFRM (Escherichia coli, UniProt P23836): 3.93
PhoP, residues 12 14 15 18 19 QYFSL (Escherichia coli, UniProt P23836): 2.76

Repeated from above (study 3):
GCATAACA: -0.0658
CCTTTTAG: -0.0756
ACTCAAAG: -0.116
TAGTGCAA: 0.163
